Results collected from several papers.
Compare with care: the assays were run in different laboratories. ± marks the error that the study gave.

Substance | test | test system | conditions | quantity | value
CCCCCCCCCCCCCCCCCCSC1CC(=O)N(CCC(=O)NCCOCCOCCOCCOCCOCCOCCOCCOCCOCCOCCOCCOCCOCCOCCOCCOCCOCCOCCOCCOCCOCCOCCOCCOCCC(=O)NC(COCCC(=O)NCCOCCOCCOCCOCCC(=O)NCCCC[C@@H](NC(=O)CNC(=O)[C@@H](CC(C)C)NC(=O)[C@@H](CCC(=O)O)NC(=O)[C@H]2CSSC[C@@H](NC(=O)[C@H]3CCCN3C(=O)[C@@H](Cc3c[nH]cn3)NC(C)=O)C(=O)N[C@H](CC(=O)O)C(=O)N[C@H](Cc3ccc(O)cc3)C(=O)N3CCC[C@@H]3C(=O)N[C@H](CCC(=O)O)C(=O)N[C@H](Cc3c[nH]c4ccccc34)C(=O)N[C@H](CCC(N)=O)C(=O)N[C@H](Cc3c[nH]c4ccccc34)C(=O)N[C@H](CC(C)C)C(=O)N2)C(N)=O)(COCCC(=O)NCCOCCOCCOCCOCCC(=O)NCCCC[C@@H](NC(=O)CNC(=O)[C@@H](CC(C)C)NC(=O)[C@@H](CCC(=O)O)NC(=O)[C@H]2CSSC[C@@H](NC(=O)[C@H]3CCCN3C(=O)[C@@H](Cc3c[nH]cn3)NC(C)=O)C(=O)N[C@H](CC(=O)O)C(=O)N[C@H](Cc3ccc(O)cc3)C(=O)N3CCC[C@@H]3C(=O)N[C@H](CCC(=O)O)C(=O)N[C@H](Cc3c[nH]c4ccccc34)C(=O)N[C@H](CCC(N)=O)C(=O)N[C@H](Cc3c[nH]c4ccccc34)C(=O)N[C@H](CC(C)C)C(=O)N2)C(N)=O)COCCC(=O)NCCOCCOCCOCCOCCC(=O)NCCCC[C@@H](NC(=O)CNC(=O)[C@@H](CC(C)C)NC(=O)[C@@H](CCC(=O)O)NC(=O)[C@H]2CSSC[C@@H](NC(=O)[C@H]3CCCN3C(=O)[C@@H](Cc3c[nH]cn3)NC(C)=O)C(=O)N[C@H](CC(=O)O)C(=O)N[C@H](Cc3ccc(O)cc3)C(=O)N3CCC[C@@H]3C(=O)N[C@H](CCC(=O)O)C(=O)N[C@H](Cc3c[nH]c4ccccc34)C(=O)N[C@H](CCC(N)=O)C(=O)N[C@H](Cc3c[nH]c4ccccc34)C(=O)N[C@H](CC(C)C)C(=O)N2)C(N)=O)C1=O (some centres unmarked) | – | Sprague Dawley rat, plasma | intravenous, 1.0 mg/kg, median, with: Palm-PIE12-trimer 1.2 mg/kg | AUC(0-inf) | 0.76 µM·h
N=C(N)NCCC[C@@H]1NC(=O)[C@H](CCCCNC(=O)[C@H](CC(=O)O)NC(=O)[C@H](CC(=O)O)NC(=O)[C@H](CC(=O)O)NC(=O)CC[C@H](NC(=O)CCOCCOCCOCCOCCNC(=O)c2ccc(NN)nc2)C(=O)N[C@@H](CC(=O)O)C(=O)N[C@@H](CC(=O)O)C(=O)N[C@@H](CC(=O)O)C(=O)NCCCC[C@@H]2NC(=O)[C@@H](Cc3ccccc3)NC(=O)[C@H](CC(=O)O)NC(=O)CNC(=O)[C@H](CCCNC(=N)N)NC2=O)NC(=O)[C@@H](Cc2ccccc2)NC(=O)[C@H](CC(=O)O)NC(=O)CNC1=O [technetium-99m labelled] | γ-counting | female athymic nude mice, U-87 MG xenograft, brain | intravenous, 1 h | tissue uptake | 0.13 ± 0.02 %ID/g
Cc1ccccc1NC(=O)Nc1ccc(CC(=O)N[C@@H](CCCCNC(=O)/C=C/c2cccnc2)C(=O)N[C@@H](CCCC(=O)O)C(=O)NC2(C(=O)NCCOCCOCCOCCOCC(=O)N[C@@H](CCCCNC(=S)Nc3ccc(C[C@H]4CN(CC(=O)O)CCN(CC(=O)O)CCN4CC(=O)O)cc3)C(N)=O)CCCCC2)cc1 [fluorine-18 labelled] | – | mouse C57BL/6 female, B16-F10 tumour, tumour | intravenous, 0.5 h | tissue uptake | 9.04 ± 2.3 %ID/g
CCCCCCCCCCCCCCCC(=O)N[C@H](C(=O)N[C@H](C(=O)N[C@H](C(=O)N[C@@H](CSSCCOP(=O)(O)CO[C@H](C)Cn1cnc2c(N)ncnc21)C(=O)N[C@@H](CCC(=O)O)C(=O)O)C(C)C)C(C)C)C(C)C | – | PBS | 100 µM, 3 days, 37 °C, without dithiothreitol | stability | stable
CCN1C(=CC=CC=CC2=[N+](CCCCCC(=O)NCCCC[C@H](NC(=O)CN3CCN(CC(=O)O)CCN(CC(=O)O)CCN(CC(=O)O)CC3)C(=O)NCC(=O)NCC(=O)N[C@@H](Cc3ccc(O)cc3)C(=O)NCC(=O)N[C@H]3CSSC[C@@H]4NC(=O)CNC(=O)[C@H](C)NC(=O)[C@H](CC(C)C)NC(=O)[C@@H]5CSSC[C@@H](C(=O)NCC(N)=O)NC(=O)[C@H](Cc6ccccc6)NC(=O)CNC(=O)[C@H](CC(N)=O)NC(=O)[C@@H]6CCCN6C(=O)CNC(=O)[C@H](CSSC[C@H](NC(=O)[C@H](CO)NC(=O)[C@H]([C@@H](C)O)NC(=O)[C@@H]6CCCN6C(=O)[C@H](C)NC(=O)[C@H](Cc6c[nH]c7ccccc67)NC(=O)[C@H](CC(=O)O)NC(=O)CNC(=O)[C@H](CCCNC(=N)N)NC(=O)CNC(=O)[C@H](CCC(N)=O)NC(=O)[C@@H]6CCCN6C3=O)C(=O)N[C@@H](CO)C(=O)N[C@@H](CCC(N)=O)C(=O)N[C@@H](CC(=O)O)C(=O)N[C@@H](CO)C(=O)N[C@@H](CC(=O)O)C(=O)N5)NC(=O)[C@H](C(C)C)NC4=O)c3ccc4c(S(=O)(=O)[O-])cc(S(=O)(=O)O)cc4c3C2(C)C)C(C)(C)c2c1ccc1c(S(=O)(=O)O)cc(S(=O)(=O)O)cc21 (single isomer, unassigned) [copper-64 labelled] | – | nude mouse, U-87 MG xenograft, tumour | intravenous, 100 µCi, 0.5 nmol, 1 h | tissue uptake | 3.24 ± 0.87 %ID/g
COc1cccc2c1C(=O)c1c(O)c3c(c(O)c1C2=O)C[C@@](O)(C(=O)CO)C[C@@H]3O[C@H]1C[C@H](NC(=O)[C@H](CC(C)C)NC(=O)[C@H](C)NC(=O)[C@H](CC(C)C)NC(=O)CCNC(=O)CCC(=O)O)[C@H](O)[C@H](C)O1 | – | mouse, E0771 tumour-bearing, liver | intravenous, 92 µmol/kg | Cmax | 49 µM
peginesatide | – | healthy adults | intravenous, 0.1 mg/kg single dose | subjects with adverse events | 31.3%
melittin | isothermal titration calorimetry | POPC/POPG LUVs 75:25% | 100 µM, pH 7.0, 50 °C | partitioning enthalpy | -15.6 kcal/mol
N=C(N)NCCC[C@@H]1NC(=O)[C@H](CCCCNC(=O)CNC(=O)CNC(=O)CNC(=O)CC[C@H](NC(=O)CCOCCOCCOCCOCCNC(=O)c2ccc(NN)nc2)C(=O)NCC(=O)NCC(=O)NCC(=O)NCCCC[C@@H]2NC(=O)[C@@H](Cc3ccccc3)NC(=O)[C@H](CC(=O)O)NC(=O)CNC(=O)[C@H](CCCNC(=N)N)NC2=O)NC(=O)[C@@H](Cc2ccccc2)NC(=O)[C@H](CC(=O)O)NC(=O)CNC1=O [technetium-99m labelled] | γ-counting | female athymic nude mice, U-87 MG xenograft, brain | intravenous, 1 h | tissue uptake | 0.15 ± 0.02 %ID/g
COc1cccc2c1C(=O)c1c(O)c3c(c(O)c1C2=O)C[C@@](O)(C(=O)CO)C[C@@H]3O[C@H]1C[C@H](NC(=O)[C@@H]2CCCN2C(=O)CNC(=O)[C@H](CC(C)C)NC(=O)[C@H](C)NC(=O)CP(=O)(O)O)[C@H](O)[C@H](C)O1 | – | mouse, E0771 tumour-bearing, plasma | intravenous, 92 µmol/kg | Cmax | 560 µM
Cc1ccccc1NC(=O)Nc1ccc(CC(=O)N[C@@H](CCCCNC(=O)/C=C/c2cccnc2)C(=O)N[C@@H](CCCC(=O)O)C(=O)NC2(C(=O)NCCOCCOCCNC(=O)CCC(=O)NCCOCCOCCNC(=O)CCC(=O)N[C@@H](CCCCNC(=O)CN3CCCN4CCN(CCCN(CP(=O)(O)O)CC4)CC3)C(N)=O)CCCCC2)cc1 [copper-64 labelled] | PET/CT | C57BL/6 mice, B16-F10 tumour | intravenous, 2 h, with: LLP2A 100 µg blocking | tumour to background ratio | 8.2 ± 0.8

A few entries again:
Substance | test | test system | conditions | quantity | value
N=C(N)NCCC[C@@H]1NC(=O)[C@H](CCCCNC(=O)[C@H](CC(=O)O)NC(=O)[C@H](CC(=O)O)NC(=O)[C@H](CC(=O)O)NC(=O)CC[C@H](NC(=O)CCOCCOCCOCCOCCNC(=O)c2ccc(NN)nc2)C(=O)N[C@@H](CC(=O)O)C(=O)N[C@@H](CC(=O)O)C(=O)N[C@@H](CC(=O)O)C(=O)NCCCC[C@@H]2NC(=O)[C@@H](Cc3ccccc3)NC(=O)[C@H](CC(=O)O)NC(=O)CNC(=O)[C@H](CCCNC(=N)N)NC2=O)NC(=O)[C@@H](Cc2ccccc2)NC(=O)[C@H](CC(=O)O)NC(=O)CNC1=O [technetium-99m labelled] | γ-counting | female athymic nude mice, U-87 MG xenograft, brain | intravenous, 1 h | tissue uptake | 0.13 ± 0.02 %ID/g
